Results from different studies.
Compare with care: the assays were run in different laboratories. “And” joins repeats or separate records; there may be more than shown.
Technique: steady-state kinetics
B1: gdh (Bacillus subtilis, UniProt P12310); chain MYPDLKGKVVAITGAASGLGKAMAIRFGKEQAKVVINYYSNKQDPNEVKEEVIKAGGEAVVVQGDVTKEEDVKNIVQTAIKEFGTLDIMINNAGLENPVPSHEMPLKDWDKVIGTNLTGAFLGSREAIKYFVENDIKGNVINMSSVHEVIPWPLFVHYAASKGGIKLMTETLALEYAPKGIRVNNIGPGAINTPINAEKFADPKQKADVESMIPMGYIGEPEEIAAVAAWLASKEASYVTGITLFADGGMTQYPSFQAGRG
B2: enzyme (Arabidopsis thaliana, UniProt Q9C969); chain GSFGMLSRRTLGTDMPVMAQIRSLMAELTNPMSLAQGVVHWQPPQKALEKVKELVWDPIISSYGPDEGLPELRQALLKKLREENKLTNSQVMVTAGANQAFVNLVITLCDAGDSVVMFEPYYFNSYMAFQMTGVTNIIVGPGQSDTLYPDADWLERTLSESKPTPKVVTVVNPGNPSGTYVPEPLLKRIAQICKDAGCWLIVDNTYEYFMYDGLKHCCVEGDHIVNVFSFSKTYGMMGWRLGYIAYSERLDGFATELVKIQDNIPICAAIISQRLAVYALEEGSGWITERVKSLVKNRDIVKEALEPLGKENVKGGEGAIYLWAKLPEGHRDDFKVVRWLAHRHGVVVIPGCASGSPGYLRVSFGGLQEVEMRAAAARLRKGIEELLHHGMVE
B3: enzyme (UniProt A0A0P0CH59); chain MRIALFSDIHANLPALEAVLANMETQQLDAIYCLGDLVGYAPWPNEVVAEIRKRRIPTIAGNYDEGVGLWSPNCGCAYKTDTEKDLGQQSIDFTNNVVTEETRKYLRMLPRQLRLTFMDGSKEENKIELLLVHGSPRKINEYLFEDRPEKSFLKMMEEANADLLFFGHTHKPYHRAMPYEHEGQTRYRHAINIGSVGKPKDGDPRTGYVVVELTPESSLTQKDSIKVEFIRVPYDVETAAQAVEASPLPNEFAQMLRTA
B4: enzyme (Sargassum horneri, UniProt A0A097IUG6); chain SPMAVASPSGFQKAMKTTLSSLGIDKATGITKPTTIYRNLPYPEVFKHEEQNKEGEVTKNGTFCVSTGQFTGRSPKDKYFVKQAPSDGKLDWGKINKGVASEVYKNIYDKAVKHYNTNVDKMYVFDGYCGTSPKSRKNVRIITELAWQHHFAKNMFIRPETEEEVANFVPDFTIINACKIVNEDYKELGLNSEVAVVFNVEESKAVITGTWYGGEMKKGIFSMMNYWLPLDGVMSMHCSANKGKDGDTALFFGLSGTGKTTLSADPARYLIGDDEHGWDDDGIFNFEGGCYAKTVNLSRENEPEIYDAIKRDALLENVIIKKNGEPDYADVSRTENTRVSYPIYHIDNYEPSGMGDHPKSIVFLTCDAFGVLPPVSRLSPGQAMYHFLSGYTAKVAGTERGVTEPTPNFSAGFGAAFLTLHPTVYADLLQEKLDKHGTQCFLINTGWTGGGYGVGKRMSIKATRACVDAVLDGSINKTKFTKEPVFGFEVPQELPNVPSKVLNPREAWSDKASYDATRTKLGDMFKNNFTKFVKPGMTDYTAYGPK
B5: enzyme (Arabidopsis thaliana, UniProt Q944I4); chain SSYLSSKLSPIRTHSSFAACGCSWIQDNSMVHDYATTTNGTSKRCSALPTTNTVDVSSVSDLFEFICSGPLVNKIGITPQRVGQSIDKWLLYGSQLCRLFQLNELKLTIPQKARLYHYYIPVFIWCEDQIALHNSKFKDGDDVPPLVIGFSAPQGCGKTTLVFALDYLFKTTKKKSATISVDDFYLTAEGQAELRKKNPGNALLEYRGNAGSHDLKLSVETLEALSKLTKEGLKMKVPRYNKSAYSGRGDRADSSTWPEVEGPLSVILFEGWMLGFKPLPADVVKAVDPQLEVVNKNLEAYYDAWDKYIDAWVVIKIQDPSYVYRWRLQAEIAMRQDGQAGMSDEEVNDFVSRYLPAYKAYLPTLYAEGPSGSDPDRVLAIDIDEERNPILAN
B6: UGT1A6 (Homo sapiens, UniProt P19224); chain DKLLVVPQDGSHWLSMKDIVEVLSDRGHEIVVVVPEVNLLLKESKYYTRKIYPVPYDQEELKNRYQSFGNNHFAERSFLTAPQTEYRNNMIVIGLYFINCQSLLQDRDTLNFFKESKFDALFTDPALPCGVILAEYLGLPSVYLFRGFPCSLEHTFSRSPDPVSYIPRCYTKFSDHMTFSQRVANFLVNLLEPYLFYCLFSKYEELASAVLKRDVDIITLYQKVSVWLLRYDFVLEYPRPVMPNMVFIGGINCKKRKDLSQEFEAYINASGEHGIVVFSLGSMVSEIPEKKAMAIADALGKIPQTVLWRYTGTRPSNLANNTILVKWLPQNDLLGHPMTRAFITHAGSHGVYESICNGVPMVMMPLFGDQMDNAKRMETKGAGVTLNVLEMTSEDLENALKAVINDKSYKENIMRLSSLHKDRPVEPLDLAVFWVEFVMRHKGAPHLRPAAHDLTWYQYHSLDVIGFLLAVVLTVAFITFKCCAYGYRKCLGKKGRVKKAHKSKTH
B7: RABE1C (Arabidopsis thaliana, UniProt P28186); chain MAAPPARARADYDYLIKLLLIGDSGVGKSCLLLRFSDGSFTTSFITTIGIDFKIRTIELDGKRIKLQIWDTAGQERFRTITTAYYRGAMGILLVYDVTDESSFNNIRNWIRNIEQHASDNVNKILVGNKADMDESKRAVPTAKGQALADEYGIKFFETSAKTNLNVEEVFFSIGRDIKQRLSDTDSRAEPATIKISQTDQAAGAGQATQKSACCGT
B8: bxlB (Aspergillus nidulans, UniProt Q5ATH9); chain NYPDCTTGPLSELPICDTSLSPLERAKSLVSALTLEEKINNTGHEAAGSSRLGLPAYNWWNEALHGVAEKHGVSFEESGDFSYATSFPAPIVLGAAFNDALIRRVAEIISTEARAFSNSDHAGIDYWTPNVNPFKDPRWGRGQETPGEDPLHCSRYVKEFVGGLQGDDPEKPKVVATCKHLAAYDLEEWGGVSRFEFDAKVSAVDLLEYYLPPFKTCAVDASVGAFMCSYNALNGVPACADRYLLQTVLREHWGWEGPGHWVTGDCGAVERIQTYHHYVESGPEAAAAALNAGVDLDCGTWLPSYLGEAERQGLISNETLDAALTRLYTSLVQLGYFDPAEGQPLRSLGWDDVATSEAEELAKTVAIQGTVLLKNIDWTLPLKANGTLALIGPFINFTTELQSNYAGPAKHIPTMIEAAERLGYNVLTAPGTEVNSTSTDGFDDALAIAAEADALIFFGGIDNTVEEESLDRTRIDWPGNQEELILELAELGRPLTVVQFGGGQVDDSALLASAGVGAIVWAGYPSQAGGAGVFDVLTGKAAPAGRLPITQYPKSYVDEVPMTDMNLQPGTDNPGRTYRWYEDAVLPFGFGLHYTTFNVSWAKKAFGPYDAATLARGKNPSSNIVDTFSLAVTNTGDVASDYVALVFASAPELGAQPAPIKTLVGYSRASLIKPGETRKVDVEVTVAPLTRATEDGRVVLYPGEYTLLVDVNDEYPTAKFEIKGDVQVLEKFPLSGNDSD
Chain of UniProt P00723 (whole entry, looked up): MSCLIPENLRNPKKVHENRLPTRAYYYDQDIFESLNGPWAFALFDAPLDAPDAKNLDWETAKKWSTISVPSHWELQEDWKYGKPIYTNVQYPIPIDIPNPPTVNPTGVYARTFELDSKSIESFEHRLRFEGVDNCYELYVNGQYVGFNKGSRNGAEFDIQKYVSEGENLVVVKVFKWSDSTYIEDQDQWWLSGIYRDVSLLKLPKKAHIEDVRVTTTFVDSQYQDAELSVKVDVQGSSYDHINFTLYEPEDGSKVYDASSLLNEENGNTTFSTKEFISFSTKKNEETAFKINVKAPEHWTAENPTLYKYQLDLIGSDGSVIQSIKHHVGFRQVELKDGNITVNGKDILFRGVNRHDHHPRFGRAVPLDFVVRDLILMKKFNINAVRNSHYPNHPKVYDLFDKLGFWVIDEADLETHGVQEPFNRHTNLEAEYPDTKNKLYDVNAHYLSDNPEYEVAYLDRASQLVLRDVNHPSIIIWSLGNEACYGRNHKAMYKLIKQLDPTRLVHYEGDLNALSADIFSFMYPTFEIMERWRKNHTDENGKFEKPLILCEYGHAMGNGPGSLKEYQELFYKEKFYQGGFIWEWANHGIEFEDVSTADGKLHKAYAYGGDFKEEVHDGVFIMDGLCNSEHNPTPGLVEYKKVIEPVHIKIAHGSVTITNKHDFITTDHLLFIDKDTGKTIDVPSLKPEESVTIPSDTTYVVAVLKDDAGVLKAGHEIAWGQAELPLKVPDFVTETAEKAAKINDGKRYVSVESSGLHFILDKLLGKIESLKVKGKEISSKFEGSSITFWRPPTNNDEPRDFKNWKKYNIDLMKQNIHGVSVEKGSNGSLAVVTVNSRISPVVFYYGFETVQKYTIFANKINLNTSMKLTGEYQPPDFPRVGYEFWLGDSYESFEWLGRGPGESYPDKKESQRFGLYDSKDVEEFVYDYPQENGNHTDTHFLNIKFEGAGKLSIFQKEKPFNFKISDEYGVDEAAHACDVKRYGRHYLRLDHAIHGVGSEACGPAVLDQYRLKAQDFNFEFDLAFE
Chain of UniProt O80970 (whole entry, looked up): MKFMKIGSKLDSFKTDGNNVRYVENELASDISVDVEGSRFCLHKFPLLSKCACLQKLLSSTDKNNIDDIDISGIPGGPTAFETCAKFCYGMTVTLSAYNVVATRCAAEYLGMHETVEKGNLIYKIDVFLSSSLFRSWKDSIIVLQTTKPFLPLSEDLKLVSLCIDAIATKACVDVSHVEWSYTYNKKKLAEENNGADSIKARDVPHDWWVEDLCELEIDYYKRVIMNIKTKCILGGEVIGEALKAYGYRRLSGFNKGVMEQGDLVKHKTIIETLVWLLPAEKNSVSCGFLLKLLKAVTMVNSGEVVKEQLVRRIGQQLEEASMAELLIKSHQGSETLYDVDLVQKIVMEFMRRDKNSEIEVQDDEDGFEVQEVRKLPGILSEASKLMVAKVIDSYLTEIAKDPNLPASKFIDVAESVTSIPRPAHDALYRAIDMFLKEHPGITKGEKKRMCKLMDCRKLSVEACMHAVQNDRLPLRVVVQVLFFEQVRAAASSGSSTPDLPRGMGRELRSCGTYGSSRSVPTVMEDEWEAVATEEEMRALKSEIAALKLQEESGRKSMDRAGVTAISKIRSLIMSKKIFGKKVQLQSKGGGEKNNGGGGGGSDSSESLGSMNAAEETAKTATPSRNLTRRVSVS

Substance	substrate	pH	temperature	notes	together with	Vmax
B1 (gdh)	NC(=O)c1ccc[n+]([C@@H]2O[C@H](COP(=O)(O)OP(=O)(O)OC[C@H]3O[C@@H](n4cnc5c(N)ncnc54)[C@H](O)[C@@H]3O)[C@@H](O)[C@H]2O)c1	pH 8	50 °C			270 µmol/min/mg
enzyme (Saccharina japonica, UniProt A0A097IUE3)	C=C(OP(=O)(O)O)C(=O)O	pH 6.5	25 °C		2 mM ADP	23 µmol/min/mg
B2 (enzyme)	O=C(O)C(=O)Cc1ccccc1					1800 µM/min/mg and 1600 µM/min/mg
B3 (enzyme)	O=[N+]([O-])c1ccc(OP(=O)(O)O)cc1		37 °C		Ni2+ 0.25 mM	0.139 µmol/min/mg
B4 (enzyme)	Nc1ncnc2c1ncn2[C@@H]1O[C@H](COP(=O)(O)OP(=O)(O)O)[C@@H](O)[C@H]1O	pH 6.5	25 °C		16 mM PEP	37.5 µmol/min/mg
enzyme (Arabidopsis thaliana, UniProt O80970)	Nc1nc2c(ncn2[C@@H]2O[C@H](COP(=O)(O)OP(=O)(O)OP(=O)(O)O)[C@@H](O)[C@H]2O)c(=O)[nH]1	pH 7.5	30 °C			3.07 µmol/min
B5 (enzyme)	O=C(O)[C@H](O)CO	pH 7.8	30 °C			78 µmol/min/mg
B6 (UGT1A6)	O=c1cc(C(F)(F)F)c2ccc(O)cc2o1		37 °C	not purified		0.0133 µmol/min/mg
B7 (RABE1C)	Nc1nc2c(ncn2[C@@H]2O[C@H](COP(=O)(O)OP(=O)(O)OP(=O)(O)O)[C@@H](O)[C@H]2O)c(=O)[nH]1	pH 7.5	30 °C			1.74 µmol/min
LAC4 (Kluyveromyces lactis, UniProt P00723)	O=[N+]([O-])c1ccccc1O[C@@H]1O[C@H](CO)[C@H](O)[C@H](O)[C@H]1O	pH 6.5	30 °C			249 µmol/min/mg
B8 (bxlB)	O=[N+]([O-])c1ccc(O[C@@H]2OC[C@@H](O)[C@H](O)[C@H]2O)cc1	pH 5	50 °C			11 µmol/min/mg
gdh N192L/N97F (Bacillus subtilis)	NC(=O)c1ccc[n+]([C@@H]2O[C@H](COP(=O)(O)OP(=O)(O)OC[C@H]3O[C@@H](n4cnc5c(N)ncnc54)[C@H](O)[C@@H]3O)[C@@H](O)[C@H]2O)c1	pH 7	50 °C			323 µmol/min/mg
UGT1A7 (Homo sapiens, UniProt Q9HAW7)	CC(C)=CCc1cc2c(cc1O)O[C@H](c1ccc(O)cc1)CC2=O	pH 7.4				0.012 µmol/min/mg

Repeated from above:
Substance	substrate	pH	temperature	notes	together with	Vmax
enzyme (Arabidopsis thaliana, UniProt O80970)	Nc1nc2c(ncn2[C@@H]2O[C@H](COP(=O)(O)OP(=O)(O)OP(=O)(O)O)[C@@H](O)[C@H]2O)c(=O)[nH]1	pH 7.5	30 °C			3.07 µmol/min
B8 (bxlB)	O=[N+]([O-])c1ccc(O[C@@H]2OC[C@@H](O)[C@H](O)[C@H]2O)cc1	pH 5	50 °C			11 µmol/min/mg
